Measured values collected from several papers.
Compare with care: the assays were run in different laboratories. ± gives the spread as reported. Ends that are not written are not given here.

| Molecule | target or system | test | test system | setting | scale | measurement | result |
| --- | --- | --- | --- | --- | --- | --- | --- |
| Cc1cc(C)n2c(Nc3ccc4c(c3)OCCO4)c(-c3cccc(Br)c3)nc2n1 | hemagglutinin H7 (influenza A virus) | pseudovirus entry | A549 |  |  | EC50 | 0.25 ± 0.13 µM |
| COc1ccc2cc3[n+](cc2c1OC)CCc1cc2c(cc1-3)OCO2 | SARS-CoV-2 envelope protein |  | Vero C1008 | 20 µg/mL |  | inhibition | 87.5 ± 6.9% |
| O=c1c2ccccc2[se]n1-c1ccccc1 | Enterovirus A71 2A protease | enzyme activity, FRET |  |  |  | IC50 | > 60 µM |
| GsMTx4 | stretch-activated cation channel, rat | ion current, outside-out patch clamp | rat astrocytes | 5 µM, applied 1 s after pressure onset, -50 mV, 29 steps |  | current decay time constant | 594 ± 10 ms |
| NVYADSFVIR |  | AIM | peptide, CD8+ T cells from PBMC, human donors | dose not given |  | response magnitude per positive donor | 108 |
| CC(C)=CC[C@@H](O)C1=CC(=O)c2c(O)ccc(O)c2C1=O | Enterovirus A71 3C protease | enzyme activity, FRET |  |  |  | IC50 | > 60 µM |
| CC(=O)N[C@@H](CC(C)C)C(=O)N[C@@H](CC(C)C)C(=O)N[C@H](C=O)CCCNC(=N)N | trypsin | spike protein cleavage, inhibitor | SARS-CoV-2 | 100 µM, together with: trypsin 25 nM |  | proteolysis | inhibited |
| CCC(C)SSc1ncc[nH]1 (centres unmarked) | Enterovirus A71 3C protease | enzyme activity, FRET |  |  |  | IC50 | > 60 µM |
| CNC(=O)[C@@H](NC(=O)[C@H](CC(C)C)[C@H](O)C(=O)NO)C(C)(C)C | Daboia russelii venom proteases (SVMP) | protease activity, inhibitor | RJ population | 10 µM, together with: azocasein substrate | baseline: venom alone | remaining activity | 0% |
| QPLRKLCILHRNPGRCYQKIPAFYYNQKKKQCEGFTWSGCGGNSNRFKTIEECRRTCIRK (dendrotoxin I; ends and bridges not checked; cysteine pairing not given here; sequence looked up) | maxi-KCa channel, rat muscle | channel current, planar bilayer single-channel |  | concentration not given, internal, +30 mV | baseline: unitary current | substate current level | ~60% |
| CC(=O)N[C@H]1[C@H]([C@H](O)[C@H](O)CO)OC(C(=O)O)=C[C@@H]1N=C(N)N | neuraminidase N1 swine influenza |  | influenza A virus, swine strains | mean |  | IC50 | 0.00026 µM |
| c1ccc(C(NCCNC(c2ccccc2)c2ccccc2)c2ccccc2)cc1 | strychnine-sensitive glycine receptor, rat | binding |  | 10 µM, Eurofins selectivity panel |  | inhibition | -8% |
| YTMSLGAENSVAY |  | AIM | peptide, CD8+ T cells from PBMC, human donors | dose not given |  | response magnitude per positive donor | 106 |
| CCN(CC)C(=S)SSC(=S)N(CC)CC | Enterovirus A71 3C protease | enzyme activity, FRET |  |  |  | IC50 | > 60 µM |
| CC(=O)c1ccc(NC(=O)c2sc3nc4c(cc3c2N)CCCC4)cc1 | PrP^Sc | prion propagation | ScN2a-cl3 cells, dividing |  |  | EC50 | > 10 µM |
| oseltamivir | neuraminidase, influenza A/Texas/37/2024 (H5N1) | enzyme activity, inhibitor |  |  |  | IC50 | 0.00319 ± 0.00072 µM |
| O=c1sn(-c2cccc3ccccc23)c(=O)n1Cc1ccccc1 | Enterovirus A71 3C protease | enzyme activity, FRET |  |  |  | IC50 | > 60 µM |

Excerpt of the above:
| Molecule | target or system | test | test system | setting | scale | measurement | result |
| --- | --- | --- | --- | --- | --- | --- | --- |
| CC(C)=CC[C@@H](O)C1=CC(=O)c2c(O)ccc(O)c2C1=O | Enterovirus A71 3C protease | enzyme activity, FRET |  |  |  | IC50 | > 60 µM |
| CC(=O)N[C@@H](CC(C)C)C(=O)N[C@@H](CC(C)C)C(=O)N[C@H](C=O)CCCNC(=N)N | trypsin | spike protein cleavage, inhibitor | SARS-CoV-2 | 100 µM, together with: trypsin 25 nM |  | proteolysis | inhibited |
| CCC(C)SSc1ncc[nH]1 (centres unmarked) | Enterovirus A71 3C protease | enzyme activity, FRET |  |  |  | IC50 | > 60 µM |
